Literature values that unrelated publications cite.
Compare with care: the assays were run in different laboratories. ± gives the spread as reported. In brackets after ≈: the same amount, converted by molar mass.
UniProt Q8WU08, sequence (whole entry, looked up): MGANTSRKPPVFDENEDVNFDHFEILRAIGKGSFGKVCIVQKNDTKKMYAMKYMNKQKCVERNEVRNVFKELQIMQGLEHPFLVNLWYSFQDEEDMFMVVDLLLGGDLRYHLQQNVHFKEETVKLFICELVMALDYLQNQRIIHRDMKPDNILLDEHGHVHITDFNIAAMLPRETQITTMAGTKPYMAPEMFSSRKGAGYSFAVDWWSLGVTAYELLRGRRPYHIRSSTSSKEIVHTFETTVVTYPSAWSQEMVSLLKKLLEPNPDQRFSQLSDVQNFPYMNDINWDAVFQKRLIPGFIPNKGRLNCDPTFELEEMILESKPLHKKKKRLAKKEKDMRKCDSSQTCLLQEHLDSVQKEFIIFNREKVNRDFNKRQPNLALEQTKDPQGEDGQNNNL

SMILES	target or system	test	system	conditions	scale	endpoint	value
CC(C)(O/N=C(\C(=O)N[C@@H]1C(=O)N2C(C(=O)[O-])=C(C[n+]3ccccc3)CS[C@H]12)c1csc(N)n1)C(=O)O	Klebsiella pneumoniae	–	clinical isolate RKI-No_577/15	–	–	MIC	4 mg/L (≈ 7.32 µM)
C=CC(=O)N1CCC([C@@H]2CCNc3c(C(N)=O)c(-c4ccc(Oc5ccccc5)cc4)nn32)CC1	–	–	human	320 mg once daily	–	half-life	3.97 h
CCC(C)n1ncn(-c2ccc(N3CCN(c4ccc(OCC5COC(Cn6cncn6)(c6ccc(Cl)cc6Cl)O5)cc4)CC3)cc2)c1=O (centres unmarked)	–	–	human	–	–	half-life	~18 h
C[C@H]1CN(C2COC2)CCN1c1ccc(Nc2cc(-c3ccnc(N4CCn5c(cc6c5CC(C)(C)C6)C4=O)c3CO)cn(C)c2=O)nc1	–	–	human	200 mg once daily	–	half-life	8.66 h
CCN1CCN(Cc2ccc(Nc3ncc(F)c(-c4cc(F)c5nc(C)n(C(C)C)c5c4)n3)nc2)CC1	–	–	human	mean across doses	–	half-life	17 to 38 h
Cc1[nH]c2ccccc2c1CCNCc1ccc(/C=C/C(=O)NO)cc1	–	–	human	oral, dose not given	–	half-life	16 h
CC(=O)N[C@@H]1CCC[C@H](C(=O)Nc2cc(-c3cnn4c3CC(C)(C)C4)c(Cl)cn2)C1	–	–	human	–	–	half-life	1.6 h
Nc1cc(C(F)(F)F)c(-c2nc(N3CCOCC3)nc(N3CCOCC3)n2)cn1	STK32A (Homo sapiens, UniProt Q8WU08)	enzyme activity	–	10 µM	relative to: untreated	remaining activity	100%
COc1cc2c(Oc3ccc4[nH]c(C)cc4c3F)ccnc2cc1OCC1(N)CC1	–	–	human	12 mg single dose	–	half-life	116 ± 47 h
CCCn1cc(C)c2c(=O)[nH]c(-c3cc(S(=O)(=O)N4CCN(CC)CC4)ccc3OCC)nc21	–	–	human	oral, 100 mg single dose	–	half-life	4.1 ± 1.5 h
CNC(C)C1CCC(N)C(OC2C(N)CC(N)C(OC3OCC(C)(O)C(NC)C3O)C2O)O1 (centres unmarked)	–	–	human	–	–	half-life	1.92 h
CC(C)(/C=C(\C#N)C(=O)N1CCC[C@@H](n2nc(-c3ccc(Oc4ccccc4)cc3F)c3c(N)ncnc32)C1)N1CCN(C2COC2)CC1	–	–	human	600 mg once daily	–	half-life	3.9 h
CC(C)[C@H](C(=O)Nc1ccc(C(=O)NO)cc1)c1ccccc1	–	–	human	oral, 20 mg	–	half-life	10.1 h
Cc1ccc([C@@H]2O[C@H](CO)[C@@H](O)[C@H](O)[C@H]2O)cc1Cc1ccc(-c2ccc(F)cc2)s1	–	–	human, preserved kidney function	300 mg, steady state, mean	–	half-life	13.5 h
CNC(C)C1CCC(N)C(OC2C(N)CC(N)C(OC3OCC(C)(O)C(NC)C3O)C2O)O1 (centres unmarked)	Acinetobacter baumannii	–	clinical isolate RKI-No_13/16	–	–	MIC	> 8 mg/L
CC(C(=O)O)c1ccc(-c2ccccc2)c(F)c1 (centres unmarked)	–	–	human	–	–	half-life	3 to 4 h
COc1ccc(F)cc1C(=O)NCc1ccc(-c2nn([C@@H](C)C(F)(F)F)c(N)c2C(N)=O)cc1	–	–	human patients	oral, 200 mg daily	–	half-life	~20 h
CNC(=O)c1ccc(N2C(=S)N(c3ccc(C#N)c(C(F)(F)F)c3)C(=O)C2(C)C)cc1F	–	–	human	–	–	half-life	~139 h
Cc1nc(-c2ccc(OCC(C)C)c(C#N)c2)sc1C(=O)O	–	–	healthy adult human	–	–	half-life	5 to 8 h
CCN(CC)Cc1ccc2cc(COC(=O)Nc3ccc(C(=O)NO)cc3)ccc2c1	–	–	healthy male humans	oral, 100 mg	–	half-life	6 h
Cn1ncnc1[C@H]1c2n[nH]c(=O)c3cc(F)cc(c23)N[C@@H]1c1ccc(F)cc1	–	–	human adults	–	–	half-life	~50 h
CC#CC(=O)N1CC[C@@H](n2c(=O)n(-c3ccc(Oc4ccccc4)cc3)c3c(N)ncnc32)C1	–	–	human	480 mg once daily	–	half-life	6.38 h
COc1ccc2c(c1)c(CC(=O)O)c(C)n2C(=O)c1ccc(Cl)cc1	–	–	human	–	–	half-life	4.5 h

A few entries again:
SMILES	target or system	test	system	conditions	scale	endpoint	value
COc1ccc2c(c1)c(CC(=O)O)c(C)n2C(=O)c1ccc(Cl)cc1	–	–	human	–	–	half-life	4.5 h
C[C@H]1CN(C2COC2)CCN1c1ccc(Nc2cc(-c3ccnc(N4CCn5c(cc6c5CC(C)(C)C6)C4=O)c3CO)cn(C)c2=O)nc1	–	–	human	200 mg once daily	–	half-life	8.66 h
